Earlier results that unrelated publications cite.
Lines come from different studies, so protocols differ. Converted amounts (≈) assume the structure as drawn.
Sequence of UniProt Q9UKE5 (whole entry, looked up): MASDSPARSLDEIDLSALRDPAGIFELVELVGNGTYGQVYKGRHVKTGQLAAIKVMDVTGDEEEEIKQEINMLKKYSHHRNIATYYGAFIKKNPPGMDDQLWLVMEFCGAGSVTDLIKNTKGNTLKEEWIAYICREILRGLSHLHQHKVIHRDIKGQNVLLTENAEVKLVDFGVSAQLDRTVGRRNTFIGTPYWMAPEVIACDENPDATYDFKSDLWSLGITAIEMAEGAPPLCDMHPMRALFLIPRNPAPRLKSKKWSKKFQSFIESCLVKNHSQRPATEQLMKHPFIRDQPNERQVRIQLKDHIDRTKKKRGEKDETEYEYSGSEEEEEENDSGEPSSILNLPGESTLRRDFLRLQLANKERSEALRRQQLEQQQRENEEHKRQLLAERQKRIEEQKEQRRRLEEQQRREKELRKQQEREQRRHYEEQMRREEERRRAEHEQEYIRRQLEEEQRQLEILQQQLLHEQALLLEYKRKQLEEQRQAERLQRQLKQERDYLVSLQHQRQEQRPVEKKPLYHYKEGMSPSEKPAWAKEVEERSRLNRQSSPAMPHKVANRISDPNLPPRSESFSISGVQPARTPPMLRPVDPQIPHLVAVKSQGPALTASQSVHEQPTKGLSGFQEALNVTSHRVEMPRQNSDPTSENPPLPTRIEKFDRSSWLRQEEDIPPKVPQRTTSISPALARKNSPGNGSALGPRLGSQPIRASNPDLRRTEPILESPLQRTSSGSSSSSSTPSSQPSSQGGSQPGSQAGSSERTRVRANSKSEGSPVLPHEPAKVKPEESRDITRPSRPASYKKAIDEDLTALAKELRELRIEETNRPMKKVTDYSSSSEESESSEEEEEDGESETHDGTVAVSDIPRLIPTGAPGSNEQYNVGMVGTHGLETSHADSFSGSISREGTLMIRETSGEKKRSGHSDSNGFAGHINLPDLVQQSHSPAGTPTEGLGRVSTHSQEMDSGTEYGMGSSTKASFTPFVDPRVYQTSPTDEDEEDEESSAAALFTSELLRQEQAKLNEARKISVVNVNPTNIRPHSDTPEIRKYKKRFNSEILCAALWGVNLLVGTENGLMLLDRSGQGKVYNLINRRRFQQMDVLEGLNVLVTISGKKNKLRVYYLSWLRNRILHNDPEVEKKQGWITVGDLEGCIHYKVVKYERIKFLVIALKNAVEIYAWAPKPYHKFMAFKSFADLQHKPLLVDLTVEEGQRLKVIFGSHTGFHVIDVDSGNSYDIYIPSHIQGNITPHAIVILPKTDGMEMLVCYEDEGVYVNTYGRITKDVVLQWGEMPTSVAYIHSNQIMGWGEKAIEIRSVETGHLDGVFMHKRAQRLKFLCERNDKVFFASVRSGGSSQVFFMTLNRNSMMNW

SMILES	target or system	assay	system	setting	how to read	quantity	value
NCCNC(=O)c1ccc(Cl)cn1	–	–	plasma	–	–	free Cmax	2260 nM
Cc1nc2c(c(O)c1Cl)-c1ccc(Oc3cccc(C(F)(F)F)c3)cc1C2=O	Plasmodium falciparum	whole cell extended time	3D7	72 h	–	IC50	40 nM
Nc1cc(C(F)(F)F)c(-c2nc(N3CCOCC3)nc(N3CCOCC3)n2)cn1	TRAF2 and NCK-interacting protein kinase (TNIK, Homo sapiens, UniProt Q9UKE5)	enzyme activity	–	10 µM	relative to: untreated	remaining activity	75%
O=C(c1cc(Cc2n[nH]c(=O)c3ccccc23)ccc1F)N1CCN(C(=O)C2CC2)CC1	–	–	human	300 mg tablet	relative to: 400 mg capsule	AUC(0-12h)	increased
Cn1c(Cn2ccc(C(F)(F)F)c(Oc3cc(Cl)cc(C#N)c3)c2=O)n[nH]c1=O	–	–	human subjects	dose not given, up to 48 weeks	–	Headache incidence	13.8%
CNCc1cc(-c2ccccc2F)n(S(=O)(=O)c2cccnc2)c1	–	–	human, plasma	30 mg single dose, observed clinical data	–	Cmax	35.7 ng/mL
CNC(C)C1CCC(N)C(OC2C(N)CC(N)C(OC3OCC(C)(O)C(NC)C3O)C2O)O1 (stereo not shown)	Pseudomonas aeruginosa	–	clinical isolate RKI-No_93/12	–	–	MIC	> 8 µg/mL
NC(=O)N1c2ccccc2CC(=O)c2ccccc21	–	–	supercritical CO2	–	–	crossover pressure	175 to 195 bar
c1ccc2c(c1)ccc1ccccc12	–	–	fish	dose not given, experimental mean	–	bioconcentration factor	243000 L/kg
COCCc1ccc(OC[C@H](O)CNC(C)C)cc1	–	–	human	oral, 100 mg single, enantiomer	–	AUCtau	246 ng·h/mL
CC1=C(/C=C/C(C)=C/C=C/C(C)=C\C(=O)O)C(C)(C)CCC1	–	–	FaSSIF	literature value	–	solubility	51.1 µg/mL (≈ 170 µM)
Cn1cncc1-c1c(F)cncc1NC(=O)c1c(N)nn2cc(F)cnc12	–	–	patients with advanced solid tumours	180 mg once daily, first treatment cycle	–	grade ≥3 anaemia incidence	73%
CCCN(CCC)CCc1cccc2c1CC(=O)N2	–	–	plasma	–	–	free Cmax	106 nM
Cc1nc(Nc2ncc(C(=O)Nc3c(C)cccc3Cl)s2)cc(N2CCN(CCO)CC2)n1	–	–	human	–	–	free Cmax	7.05 nM
CC1(C)S[C@@H]2[C@H](NC(=O)[C@H](N)c3ccccc3)C(=O)N2[C@H]1C(=O)O	Pseudomonas aeruginosa	–	clinical isolate RKI-No_393/11	–	–	MIC	> 16 µg/mL
O=C(c1cc(-c2ccco2)[nH]n1)N1CCN(S(=O)(=O)c2ccc(Cl)cc2)CC1	Plasmodium falciparum	whole cell extended time	3D7	72 h	–	IC50	360 nM
CN(C/C=C/C#CC(C)(C)C)Cc1cccc2ccccc12	–	–	water	–	–	solubility	< 1000 µg/mL
C=C(F)C(=O)N1CCN(c2nc(OC[C@@H]3CCCN3C)nc3c2CCN(c2cccc4cccc(Cl)c24)C3)C[C@@H]1CC#N	–	–	patients, advanced solid tumours	dose not given	–	terminal half-life	23 h
COc1ccccc1OCC(O)CN1CCN(CC(=O)Nc2c(C)cccc2C)CC1 (stereo not shown)	–	–	human adults	extended-release preparation	–	elimination half-life	7 h
CC#CC(=O)N[C@H]1CCCN(c2c(F)cc(C(N)=O)c3[nH]c(C)c(C)c23)C1	–	–	human	10 mg once daily	–	volume of distribution	221 L
CN(C)C(=O)c1cc2cnc(Nc3ccc(N4CCNCC4)cn3)nc2n1C1CCCC1	–	–	cynomolgus monkey	–	–	oral bioavailability	17%
C[C@H]1COCCN1c1nc(-c2cnc(N)cc2C(F)F)nc(N2CCOCC2)n1	LoVo	–	–	–	–	GI50	315 nM

Repeated from above:
SMILES	target or system	assay	system	setting	how to read	quantity	value
COCCc1ccc(OC[C@H](O)CNC(C)C)cc1	–	–	human	oral, 100 mg single, enantiomer	–	AUCtau	246 ng·h/mL
CC1=C(/C=C/C(C)=C/C=C/C(C)=C\C(=O)O)C(C)(C)CCC1	–	–	FaSSIF	literature value	–	solubility	51.1 µg/mL (≈ 170 µM)
